Published values collected from several papers.
Lines come from different studies, so protocols differ. ± marks the error that the study gave.
Caspase-2 circularly permuted: Caspase-2, circularly permuted (Homo sapiens, UniProt P42575)
Sequence of UniProt P42575 (whole entry, unmodified, looked up): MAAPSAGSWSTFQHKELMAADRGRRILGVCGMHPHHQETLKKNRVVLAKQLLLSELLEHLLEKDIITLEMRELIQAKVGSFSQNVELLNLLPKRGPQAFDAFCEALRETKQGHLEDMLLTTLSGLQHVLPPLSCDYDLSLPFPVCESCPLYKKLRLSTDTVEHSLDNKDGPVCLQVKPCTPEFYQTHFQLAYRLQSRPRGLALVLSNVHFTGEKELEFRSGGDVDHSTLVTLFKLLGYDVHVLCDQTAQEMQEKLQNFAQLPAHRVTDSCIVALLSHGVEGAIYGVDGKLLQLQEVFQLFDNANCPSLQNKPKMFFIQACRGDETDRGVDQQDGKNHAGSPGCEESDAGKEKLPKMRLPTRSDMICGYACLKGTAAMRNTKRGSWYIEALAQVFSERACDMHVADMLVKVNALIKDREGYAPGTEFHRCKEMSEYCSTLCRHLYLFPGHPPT

| Structure (SMILES) | tested on | test | system | conditions | how to read | quantity | result |
| --- | --- | --- | --- | --- | --- | --- | --- |
| CC(C)[C@H](NC(=O)[C@@H]1CCCN1C(=O)[C@H](CCCNC(=N)N)NC(=O)[C@H](CS)NC(=O)[C@H](Cc1c[nH]c2ccccc12)NC(=O)[C@H](CCCNC(=N)N)NC(=O)[C@@H](Cc1ccccc1)NC(=O)[C@H](Cc1c[nH]cn1)NC(=O)[C@H](CCC(=O)O)NC(=O)[C@H](CS)NC(=O)[C@H](CS)NC(=O)CNC(=O)[C@@H]1CC(=O)N[C@@H](CCCNC(=N)N)C(=O)NCC(=O)N[C@@H](CC(=O)O)C(=O)N[C@H](Cc2ccc(O)cc2)C(=O)N1)C(N)=O [technetium-99m labelled] | – | – | C57 mouse, female, B16/F1 melanoma, heart | intravenous, 0.037 MBq, 0.5 h | – | tissue uptake | 2.56 ± 0.5 %ID/g |
| COc1cc(CNC(=O)C[C@H](C)CCC=C(C)C)ccc1OCc1cn(-c2ccccc2Cl)nn1 | LOX IMVI | SRB | – | 10 µM, 48 h | – | growth | 56.4% |
| O=C(O)C1CN(Cc2ccc(-c3noc(-c4ccc(OCC[18F])c(C(F)(F)F)c4)n3)cc2)C1 | – | – | male Sprague-Dawley rat, lung | intravenous, 30 min | – | tissue uptake | 0.413 ± 0.005 %ID/g |
| CCCC[C@H](NC(=O)CNC(=O)CNC(=O)CN1CCN(CC(=O)O)CCN(CC(=O)O)CC1)C(=O)N[C@H]1CC(=O)NCCCC[C@@H](C(N)=O)NC(=O)[C@H](Cc2c[nH]c3ccccc23)NC(=O)[C@H](CCCNC(=N)N)NC(=O)[C@@H](Cc2ccccc2)NC(=O)[C@H](Cc2c[nH]cn2)NC1=O [gallium-67 labelled] | – | – | female C57 mice, B16/F1 melanoma, liver | intravenous, 0.037 MBq, 4 h | – | tissue uptake | 0.54 ± 0.05 %ID/g |
| C[C@H](CN(C)Cc1ccccc1)NC(=O)c1ccc(-c2noc(C(F)(F)[18F])n2)cc1 | – | PET imaging | female Sprague-Dawley rats, muscle | intravenous, 30 min | – | tissue uptake | 0.59 ± 0.15 SUV |
| CC(=O)N[C@@H](Cc1ccccc1)C(=O)N[C@@H](CC(=O)O)C(=O)N[C@H](C(=O)N1CCC[C@H]1C(=O)N[C@H](C=O)CC(=O)O)C(C)C | Caspase-2 circularly permuted | enzyme activity, inhibitor | – | pH 6.5, 37 °C, together with: Z-VDVAD-AFC | – | Ki | 0.00933 µM |
| CC(C)[C@H](NC(=O)[C@@H]1CCCN1C(=O)[C@H](CCCNC(=N)N)NC(=O)[C@H](CS)NC(=O)[C@H](Cc1c[nH]c2ccccc12)NC(=O)[C@H](CCCNC(=N)N)NC(=O)[C@@H](Cc1ccccc1)NC(=O)[C@H](Cc1c[nH]cn1)NC(=O)[C@H](CCC(=O)O)NC(=O)[C@H](CS)NC(=O)[C@H](CS)NC(=O)[C@@H]1CC(=O)N[C@@H](CCCNC(=N)N)C(=O)NCC(=O)N[C@@H](CC(=O)O)C(=O)N[C@H](Cc2ccc(O)cc2)C(=O)N1)C(N)=O [technetium-99m labelled] | – | – | C57 mouse, female, B16/F1 melanoma, liver | intravenous, 0.037 MBq, 2 h | – | tissue uptake | 2.47 ± 0.2 %ID/g |
| CN(C)c1ccc(-c2nc3ccc(OCCCCCN4CCN5CCN(CC4)CC(=O)[O][Al]([18F])[O]C(=O)C5)cc3s2)cc1 | – | – | ICR mouse, spleen | intravenous, 2 min | – | tissue uptake | 8.38 ± 1.84 %ID/g |
| OCc1cn(Cc2ccc(-c3noc(-c4ccc(OCC[18F])c(C(F)(F)F)c4)n3)cc2)nn1 | – | – | female Lewis rat, muscle | intravenous, 120 min | – | tissue uptake | 0.47 ± 0.02 %ID/g |
| CCCC[C@@H]1NC(=O)[C@@H](NC(=O)[C@H](CCC(=O)O)NC(=O)CNC(=O)CN2CCN(CC(=O)O)CCN(CC(=O)O)CCN(CC(=O)O)CC2)CCCCNC(=O)C[C@@H](C(N)=O)NC(=O)[C@H](C(C)C)NC(=O)[C@@H]2CCCN2C(=O)[C@H](CCCNC(=N)N)NC(=O)CNC(=O)[C@H](Cc2c[nH]c3ccccc23)NC(=O)[C@H](CCCNC(=N)N)NC(=O)[C@@H](Cc2ccccc2)NC(=O)[C@H](Cc2c[nH]cn2)NC(=O)[C@H](CCC(=O)O)NC1=O [gallium-67 labelled] | – | – | C57 mice with B16/F1 melanoma, muscle | intravenous, 0.037 MBq, 24 h | – | tissue uptake | 0.09 ± 0.08 %ID/g |
| CC(=O)N[C@H](C(=O)N[C@@H](CC(=O)O)C(=O)N[C@H](CCCCN)C(=O)N[C@@H](C)C(=O)N[C@H](C=O)CC(=O)O)C(C)C | Caspase-2 circularly permuted | enzyme activity, inhibitor | – | pH 6.5, 37 °C, together with: Z-VDVAD-AFC | – | Ki | 49 µM |
| CCCC[C@H](NC(=O)CNC(=O)CNC(=O)CN1CCN(CC(=O)O)CCN(CC(=O)O)CCN(CC(=O)O)CC1)C(=O)N[C@H]1CC(=O)NCCCC[C@@H](C(N)=O)NC(=O)[C@H](Cc2c[nH]c3ccccc23)NC(=O)[C@H](CCCNC(=N)N)NC(=O)[C@@H](Cc2ccccc2)NC(=O)[C@H](Cc2c[nH]cn2)NC1=O [lead-203 labelled] | – | – | C57 mouse, blood | intravenous, 0.056 MBq, 24 h | – | tissue uptake | 0.3 ± 0.05 %ID/g |
| CCCC[C@H](NC(=O)CNC(=O)CNC(=O)CN1CCN(CC(=O)O)CCN(CC(=O)O)CCN(CC(=O)O)CC1)C(=O)N[C@H]1CC(=O)NCCCC[C@@H](C(N)=O)NC(=O)[C@H](Cc2c[nH]c3ccccc23)NC(=O)[C@H](CCCNC(=N)N)NC(=O)[C@@H](Cc2ccccc2)NC(=O)[C@H](Cc2c[nH]cn2)NC1=O [copper-64 labelled] | – | – | female C57 mouse, B16/F1 melanoma, blood | intravenous, 0.037 MBq, 0.5 h | – | tissue uptake | 2.33 ± 0.54 %ID/g |
| C=C1CC[C@H](OCCCNC(=O)CCOCCOCCOCCOCCOCCOCCOCCOCCOCCOCCOCCOCCOCCOCCOCCOCCOCCOCCOCCOCCOCCOCCOCCOCCOCCOCCOCCOCCOCCOCCOCCOCCOCCOCCOCCOCCNC(=O)CCN2C(=O)CC(SC[C@H](NC(=O)[C@H](Cc3ccccc3)NC(=O)[C@H](CC(N)=O)NC(=O)[C@H](Cc3c[nH]cn3)NC(=O)[C@@H](NC(=O)[C@H](CC(=O)O)NC(=O)[C@H](CCC(N)=O)NC(=O)[C@H](CC(C)C)NC(=O)[C@H](CCCCN)NC(=O)[C@H](CCCCN)NC(=O)[C@H](CCCNC(=N)N)NC(=O)[C@H](CC(C)C)NC(=O)[C@H](Cc3c[nH]c4ccccc34)NC(=O)[C@H](CCC(=O)O)NC(=O)[C@@H](NC(=O)[C@H](CCCNC(=N)N)NC(=O)[C@H](CCC(=O)O)NC(=O)[C@H](CCSC)NC(=O)[C@H](CO)NC(=O)[C@H](CC(N)=O)NC(=O)[C@H](CC(C)C)NC(=O)[C@H](Cc3c[nH]cn3)NC(=O)[C@H](CCCCN)NC(=O)CNC(=O)[C@H](CC(C)C)NC(=O)[C@H](CC(N)=O)NC(=O)[C@H](Cc3c[nH]cn3)NC(=O)[C@H](CCSC)NC(=O)[C@H](CC(C)C)NC(=O)[C@H](CCC(N)=O)NC(=O)[C@@H](NC(=O)[C@H](CCC(=O)O)NC(=O)[C@H](CO)NC(=O)[C@@H](NC(=O)[C@@H](N)CO)C(C)C)[C@@H](C)CC)C(C)C)C(C)C)C(N)=O)C2=O)C/C1=C/C=C1\CCC[C@]2(C)[C@@H]([C@H](C)CCCC(C)(C)O)CC[C@@H]12 (stereo partly shown) | – | – | cynomolgus monkey | sc, 20 µg/kg every other day, 21 days | reference: 0.7 µg/kg dose | dose-normalised AUC | 0.26 |
| CN1C(=O)[C@@H](Cc2ccc(O)c(I)c2)NC(=O)CNC(=O)[C@H](Cc2ccc3ccccc3c2)NC(=O)[C@H](CCCNC(=N)N)NC(=O)[C@H]1CCCNC(=O)c1ccc(CNC(=O)CN2CCN(CC(=O)O)CCN(CC(=O)O)CCN(CC(=O)O)CC2)cc1 [lutetium-177 labelled] | – | item: 177Lu radioactivity | female CB-17 SCID mice, Daudi xenograft, brain | intravenous, 0.16 nmol per mouse, 96 h | – | tissue uptake | 0.006 ± 0.001 %ID/g |
| O=C([O-])CN1CCN(CC(=O)[O-])CCN(CC(=O)NCCc2ccc3c(c2)C2C=CCC2C(c2cc4c(cc2Br)OCO4)N3)CCN(CC(=O)[O-])CC1.[111In+3] (stereo not shown) | – | – | mouse, Hec50 endometrial tumour, stomach | 0.5 h post injection | – | tissue uptake | 6.8 ± 0.99 %ID/g |
